Assay results pooled from the literature.
Parts stem from different laboratories: compare values within a part only. Changes are numbered by the printed parent chain.

Series 1
Target: RNA binding protein fox-1 homolog 2, RRM domain, GST-SBP tag (RBFOX2, Homo sapiens, UniProt O43251-10, residues 100-194)
Technique: RNA Bind-n-Seq
Molecule type: RNA
Sample: in vitro
Tested at: 365 nM
Setting: natural RNA segment, single round, ends assumed
Baseline: no-protein control
Direction: higher = stronger binding
Constant ends, left off below: GGGAGUUCUACAGUCCGACGAUC … UGGAAUUCUCGGGUGCCAA
Construct (chain): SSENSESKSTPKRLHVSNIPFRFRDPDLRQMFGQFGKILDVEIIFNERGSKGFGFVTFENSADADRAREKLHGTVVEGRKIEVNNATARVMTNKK
For `UGAUUUCUCUUCUCUGGAGGCUUUGUGUAAGAAAAUCAUUAAAGAAAAACAAGCUUUUGAAAGACUGGAAGUUAAGAAAGAAACUUUACUGGCAAUGUUUAAGGACAACA`, “RBNS enrichment (R)” read 0.76.
`CACGGCUUUGCCCUGAUCUGUUCUGCAGGGCUAGGAGUGAGCCUGCCACUAACCCCUCUCCACCACUUGCUCACUCUUGGCCUUGGCCUUGGCCUUUAGGUCCCUGGUGG` — result for “RBNS enrichment (R)”: 0.235.
For `CAGGAGUAGCUCCAUAGUUGGGCCCAGAUGAAUAUUGUCAUAUAUGACACUGACUUGUGACAUAGGGACAUACCAGCCCCCUCCAGGGCUUUGGCCACUUGAAGUUCCUG`, “RBNS enrichment (R)” read 0.182.
`UUGUCAGUGGAAUGCAGUUUUUUUACUAUUCCAUCAUGAGGAACAACAUAGAUUCCAUGAUCUUUUUAAUGACAGUACAGACUGAGAUUUGAAGGAAACAUGCACAAAUC`: “RBNS enrichment (R)” 0.371.
`UUGCACUAAAUUGAACAUGACCCUGUUAGAGAUGUUAUAAAGGGAAUGAAAUCCUGGAACUCAGAGUUAAAUUAAGAACAAGGCAUCCCACAGAACCUAAUCUGAACAAU`: “RBNS enrichment (R)” 0.786.
`ACGGCCUAGGUGGACAGAUGGACGCCGCUGCCUAGGUGGACAGACGGAUGCCUGCCACCGCCGGGGCAGGGCCAGAUGCCGAUGCUGGGUGUCCAGACUCAGAAGGCUUG`: “RBNS enrichment (R)” 0.345.
`UCCAACCAGCAAAAUUUUGAUCAAAUUUGAACAAAAACCCAAAAACCUAAAACUGUUGAGCAGGUUGCGAUGAGGAGCACAGGGCUAGCUGCAGAGCUGGAUCCUCAGGA` — result for “RBNS enrichment (R)”: 0.315.
For `GUAAUAAAAUAGAGCAUAACGAAACUGUGAAACUUUCUGAAGCCUUGUCAGUGGUUAAAAGUAUUUAACACUCUACUGUUAAUGACAGAUGUUCUGUUUUUAUAACCUAC`, “RBNS enrichment (R)” read 0.512.

Series 2
Target: Centromere-binding protein 1, full length, His-tagged (CBF1, Saccharomyces cerevisiae, UniProt P17106, residues 1-351)
Chain of UniProt P17106 (whole entry, looked up): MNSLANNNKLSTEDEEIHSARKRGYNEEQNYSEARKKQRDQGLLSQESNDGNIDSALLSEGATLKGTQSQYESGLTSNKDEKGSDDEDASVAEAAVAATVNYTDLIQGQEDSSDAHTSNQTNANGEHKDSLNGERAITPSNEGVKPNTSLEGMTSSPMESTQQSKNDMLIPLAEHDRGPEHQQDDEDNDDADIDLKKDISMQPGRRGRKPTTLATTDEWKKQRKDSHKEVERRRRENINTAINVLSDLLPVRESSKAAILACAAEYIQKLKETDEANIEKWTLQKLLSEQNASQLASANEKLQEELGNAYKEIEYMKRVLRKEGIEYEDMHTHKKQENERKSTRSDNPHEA
Technique: competition protein-binding microarray
Molecule type: double-stranded DNA, one strand shown
Sample: in vitro
Tested at: 2 µM
Setting: whole 60-bp probe, lowest competitor level
Together with: Pho4 competitor, 0.05 µM
Direction: higher = stronger binding
Constant ends, left off below: … GTCTTGATTCGCTTGACGCTGCTG
The fluorescence intensity of `TGTCCGACAGCCCATCACGCAGAGCAAGTTTAAGAC` is reported as 88.8 a.u.
With `TTTAAAAGATGAAAGCACGTTACAAGCCTCTTCTTA` the fluorescence intensity was 117 a.u.
The fluorescence intensity of `CTAACGAAGGTTTGTTGTGTGGGTGACAAGCCAAGT` is reported as 87.5 a.u.
For `AATTGGAAAGGCCTTCACATGGTGATCCATCTTCTA`, the fluorescence intensity was 88.5 a.u.
The fluorescence intensity of `TTCTCTAAAAGCCATCACGTGACTCGTTGAATCACT` is reported as 17600 a.u.
`ATGAAATGCTGGAATCACCTGACTCACAAAACTGGG` gave a fluorescence intensity of 1690 a.u.
`TATGGCAAAAATCGAAACGTGGGTAAGTTTCGAGCC` gave a fluorescence intensity of 114 a.u.
`CTTCTGTAAATTTGTGTCGTGGGTGGACGCGCCCCG` has a fluorescence intensity of 72.2 a.u.
`AAATTACTAAGTTGTCACAGGACTTACCCCGTATGA` has a fluorescence intensity of 133 a.u.
`AAATTACTAAGTTGAGCAGTGGGTGACGCCGTATGA` gave a fluorescence intensity of 60.7 a.u.
`GTCTTGTCTCATTGTCACCGGACTTTCCCCACTTCA` gave a fluorescence intensity of 102 a.u.
The fluorescence intensity of `CTTGCCTACATATATTTCGTGCGATTTCAAAAATAA` is reported as 101 a.u.
With `GAACTGCCGCCGGTGGACGTGCTTTGCGTCCGAGTC` the fluorescence intensity was 54.7 a.u.
`TTGTACGATTGTTTTCACGTGTTTTTACATTTTCTG` gave a fluorescence intensity of 1620 a.u.
The fluorescence intensity of `CATACCCAACCTTGCGTAGTGGGTGAAGATATTTGT` is reported as 71.2 a.u.
`CTTCTGTAAATTTGTCACACCACTTGACGCGCCCCG` gave a fluorescence intensity of 142 a.u.
The fluorescence intensity of `TCCTCACAGATCTGCCACGTGGCTGTGCGGCTGACC` is reported as 843 a.u.
The fluorescence intensity of `CTAACGAAGGTTTGTCACATAACTTACAAGCCAAGT` is reported as 81.5 a.u.
For `CCATATTTTCTTTGGCGTGTGCCAAGATCTTGTTGT`, the fluorescence intensity was 82.3 a.u.

Series 3
Target: CCNF, cyclin fold, Cln2 fusion (human)
Technique: yeast growth competition, sequencing
Sample: yeast
Setting: strong parent motif
Baseline: not given
Direction: higher = stronger binding
Parent: E2F7 docking peptide (human); SSAQRRLEIPSGG; partner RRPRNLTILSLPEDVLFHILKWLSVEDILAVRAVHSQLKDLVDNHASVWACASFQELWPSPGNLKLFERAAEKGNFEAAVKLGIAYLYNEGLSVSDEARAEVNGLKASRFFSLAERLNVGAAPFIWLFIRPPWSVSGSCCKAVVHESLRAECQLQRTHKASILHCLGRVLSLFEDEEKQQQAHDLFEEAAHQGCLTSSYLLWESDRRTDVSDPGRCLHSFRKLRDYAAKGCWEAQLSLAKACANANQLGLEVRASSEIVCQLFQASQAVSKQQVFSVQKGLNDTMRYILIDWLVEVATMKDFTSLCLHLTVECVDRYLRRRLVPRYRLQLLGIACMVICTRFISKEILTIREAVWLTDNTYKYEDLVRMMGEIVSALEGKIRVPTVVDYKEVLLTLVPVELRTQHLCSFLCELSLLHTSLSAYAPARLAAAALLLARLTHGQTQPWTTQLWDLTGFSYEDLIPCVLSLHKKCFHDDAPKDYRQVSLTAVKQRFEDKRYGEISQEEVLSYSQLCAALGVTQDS
For `SSAQRRLEIPAGG [S11A]`, “normalised enrichment score” read 3.02.
`SSAQKRLELPSGG [R5K I9L]` — result for “normalised enrichment score”: 0.729.
`SSAQKRLEIPSGG [R5K]` — result for “normalised enrichment score”: 0.272.
`SSAQRRAEIPSGG [L7A]` — result for “normalised enrichment score”: 0.325.
`SAAQRRLEIPSGG [S2A]` — result for “normalised enrichment score”: 1.88.
Under “normalised enrichment score”, `SSAQRRLEAPSGG [I9A]` is recorded as 0.353.
`ASAQRRLEIPSGG [S1A]` — result for “normalised enrichment score”: 3.23.
`SSAQARLEIPSGG [R5A]` — result for “normalised enrichment score”: 0.323.

Series 4
Target: Interferon regulatory factor 5, full length, phosphomimetic (IRF5, Homo sapiens, UniProt Q13568-2, residues 1-514, K96S/S451D/S453D/S456D/S462D)
Technique: protein-binding microarray
Molecule type: double-stranded DNA, one strand shown
Sample: in vitro
Tested at: 250 nM
Setting: 60-bp whole probe
Together with: salmon DNA 0.4 mg/ml
Baseline: random background probes
Direction: higher = stronger binding
Constant ends, left off below: GCCTAGCAC … GTCTTGATTCGCTTGACGCTGCTG
`TCATCTGTCAGTTTTGAACTGTGCTAG` gave a log fluorescence of 0.852 z-score.
`GACGATTACAGTCTCGAGACGTGCTAG` gave a log fluorescence of 0.222 z-score.
`TCATTTTCCCCCCTCACACTGTGCTAG` gave a log fluorescence of 0.854 z-score.
For `GAAGATTCCAGTTTCGAGACGTGCTAG`, the log fluorescence was 6.04 z-score.
For `GACGGTCTCCTTAACCTGACGTGCTAG`, the log fluorescence was -0.256 z-score.
With `TTAGATTTCCGTATCGATTAGTGCTAG` the log fluorescence was 6.33 z-score.
`GACAGTCTCCTTTTCCTGACGTGCTAG` gave a log fluorescence of 0.246 z-score.
The log fluorescence of `TTAGGTATCGGTCGCGGTTAGTGCTAG` is reported as 6.53 z-score.
`TAAGGTATCGGGTTTCGGTTAGTGCTA` gave a log fluorescence of 8.25 z-score.
`TCGGTGATCAGTCTGATGGTGTGCTAG` has a log fluorescence of 0.0815 z-score.
`TTTTTTTTTTTTTTTACTTCGTGCTAG` gave a log fluorescence of 1.46 z-score.
With `TTAGGACTCGGGTATCGGTTAGTGCTA` the log fluorescence was 3.27 z-score.
For `TTAGATATCGGGTATCGATAAGTGCTA`, the log fluorescence was 5.62 z-score.
With `GTCGAACTGAGTATCGAGACGTGCTAG` the log fluorescence was 2.16 z-score.
With `GACGGTTCCCTTTTACTGACGTGCTAG` the log fluorescence was 0.494 z-score.
`TTAGGTTCCCTTTACCTTTAGTGCTAG` has a log fluorescence of 0.435 z-score.
With `TCATGTTTCCTTCCTCTACTGTGCTAG` the log fluorescence was 1.06 z-score.
`GTGGCCTTTGTTTCCAGGCAGTGCTAG` has a log fluorescence of -0.35 z-score.

Excerpt of the above (series 4):
With `TTAGGACTCGGGTATCGGTTAGTGCTA` the log fluorescence was 3.27 z-score.
For `TTAGATATCGGGTATCGATAAGTGCTA`, the log fluorescence was 5.62 z-score.
With `GTCGAACTGAGTATCGAGACGTGCTAG` the log fluorescence was 2.16 z-score.
With `GACGGTTCCCTTTTACTGACGTGCTAG` the log fluorescence was 0.494 z-score.
`TTAGGTTCCCTTTACCTTTAGTGCTAG` has a log fluorescence of 0.435 z-score.
With `TCATGTTTCCTTCCTCTACTGTGCTAG` the log fluorescence was 1.06 z-score.
`GTGGCCTTTGTTTCCAGGCAGTGCTAG` has a log fluorescence of -0.35 z-score.
